Measured values gathered from unrelated publications.
Compare with care: the assays were run in different laboratories. Values joined by “and” are separate records of one study, mostly repeats; a detail may differ. pKd: −log10 of the molar value.
U2AF2: U2AF2 148-342 (Homo sapiens, UniProt P26368)
Chain of UniProt P26368 (whole entry, looked up): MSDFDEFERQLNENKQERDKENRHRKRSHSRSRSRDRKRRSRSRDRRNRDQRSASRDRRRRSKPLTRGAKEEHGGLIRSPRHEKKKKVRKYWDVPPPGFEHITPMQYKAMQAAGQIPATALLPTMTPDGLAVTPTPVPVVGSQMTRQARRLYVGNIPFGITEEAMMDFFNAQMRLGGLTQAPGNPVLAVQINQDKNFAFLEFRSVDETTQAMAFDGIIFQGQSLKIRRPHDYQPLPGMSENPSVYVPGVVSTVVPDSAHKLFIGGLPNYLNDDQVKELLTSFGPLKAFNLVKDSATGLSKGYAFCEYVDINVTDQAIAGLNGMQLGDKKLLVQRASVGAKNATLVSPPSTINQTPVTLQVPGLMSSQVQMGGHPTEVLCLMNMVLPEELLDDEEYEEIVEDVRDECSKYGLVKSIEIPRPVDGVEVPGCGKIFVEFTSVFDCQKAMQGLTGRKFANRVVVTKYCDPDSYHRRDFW
B1: NECTIN2 32-350 (Homo sapiens, UniProt Q92692); sequence looked up; chain QDVRVQVLPEVRGQLGGTVELPCHLLPPVPGLYISLVTWQRPDAPANHQNVAAFHPKMGPSFPSPKPGSERLSFVSAKQSTGQDTEAELQDATLALHGLTVEDEGNYTCEFATFPKGSVRGMTWLRVIAKPKNQAEAQKVTFSQDPTTVALCISKEGRPPARISWLSSLDWEAKETQVSGTLAGTVTVTSRFTLVPSGRADGVTVTCKVEHESFEEPALIPVTLSVRYPPEVSISGYDDNWYLGRTDATLSCDVRSNPEPTGYDWSTTSGTFPTSAVAQGSQLVIHAVDSLFNTTFVCTVTNAVGMGRAEQVIFVRETP
B2: GDF15 mature (UniProt Q99988); sequence looked up; chain ARARNGDHCPLGPGRCCRLHTVRASLEDLGWADWVLSPREVQVTMCIGACPSQFRAANMHAQIKTSLHRLKPDTVPAPCCVPASYNPMVLIQKTDTGVSLQTYDDLLAKDCHCI
B3: cfbA 1-143 (Methanocaldococcus jannaschii, UniProt Q58380); chain MEALVLVGHGSRLPYSKELLVKLAEKVKERNLFPIVEIGLMEFSEPTIPQAVKKAIEQGAKRIIVVPVFLAHGIHTTRDIPRLLGLIEDNHEHHHEHSHHHHHHHHHEHEKLEIPEDVEIIYREPIGADDRIVDIIIDRAFGR
B4: tebp-1 (Caenorhabditis elegans, UniProt O62329); sequence looked up; chain MSSRAKKNKPSRPSFDDELTIWEFIHENTCNMEMFNEVNLDLFKEYLQEHESVFTAEQLYEYYVTTMKATLYKCEMEPEKMLTLYKNLEIEVTPHVEILLEAKFKTVLRVDSNRRLQKFSDFSARPVTCGSVSRKEKVPETIPETLEETVPETVPEPERLQNRMPLDVEISDSFEKAMWNHVSQNAARLTGKFLMTEQFWAELLQSQPNIPIKSAHIVLHHFNEMMLENLWKQAMDPDAKLQILKDLSVPLSYHQRKWILDNDRLDVALSLDGYVVSWDIVR
B5: human CHID1; sequence looked up; chain TLSKSDAKKAASKTLLEKSQFSDKPVQDRGLVVTDLKAESVVLEHRSYCSAKARDRHFAGDVLGYVTPWNSHGYDVTKVFGSKFTQISPVWLQLKRRGREMFEVTGLHDVDQGWMRAVRKHAKGLHIVPRLLFEDWTYDDFRNVLDSEDEIEELSKTVVQVAKNQHFDGFVVEVWNQLLSQKRVGLIHMLTHLAEALHQARLLALLVIPPAITPGTDQLGMFTHKEFEQLAPVLDGFSLMTYDYSTAHQPGPNAPLSWVRACVQVLDPKSKWRSKILLGLNFYGMDYATSKDAREPVVGARYIQTLKDHRPRMVWDSQASEHFFEYKKSRSGRHVVFYPTLKSLQVRLELARELGVGVSIWELGQGLDYFYDLL
B6: priC (Escherichia coli, UniProt P23862); sequence looked up; chain MKTALLLEKLEGQLATLRQRCAPVSQFATLSARFDRHLFQTRATTLQACLDEAGDNLAALRHAVEQQQLPQVAWLAEHLAAQLEAIAREASAWSLREWDSAPPKIARWQRKRIQHQDFERRLREMVAERRARLARVTDLVEQQTLHREVEAYEARLARCRHALEKIENRLARLTR
B7: treS (Deinococcus radiodurans); chain MTQAHPEWYKSAVFYELSVRTFQDGNGDGKGDFPGLTSRLDYLKNLGVDCLWLLPWFPSPLRDDGYDVADYRGIHPDLGTLDDFKVFLREAHARGLRVIGDLVTNHTSSDHPWFQAARRGPTLPDGSPNEYHDYYVWSDEGKEYADTRIIFTDTEVSNWTLDEQAGKYYWHRFFASQPDLNYDNPKVVEELHGAARFWLDLGLDGFRVDAVPYLIEREGTSCENLPETHEILKGFRAMVDREYPGRLLLAEANQWPEEVVEYFGTEAEPEFHMCFNFPVMPRLYMSLKREDTSSIREIMGRLPKIPSFGQWCTFLRNHDELTLEMVTDDERAFMYAAYAPDARMKINVGIRRRLAPLLDNDRRRIELLNTVLLALPGSPILYYGDEIGMGDDLGLPDRNGVRTPMQWNAGTSGGFSTAQPSDCFFPPIQDPVYGFGRVNVQSQLQDPSSLLKWTARQLELRRAHPAFAHGDLTFIETGNPAILAFTRQYDGETLLIVSNFAGNAQAGLLDLAPFVGRAPVTLSGASPLPVVTGNGQYPVVMGKYDYYWLRLNLEHHHHHH
B8: human DHRS2; sequence looked up; chain SSTGIDRKGVLANRVAVVTGSTSGIGFAIARRLARDGAHVVISSRKQQNVDRAMAKLQGEGLSVAGIVCHVGKAEDREQLVAKALEHCGGVDFLVCSAGVNPLVGSTLGTSEQIWDKILSVNVKSPALLLSQLLPYMENRRGAVILVSSIAAYNPVVALGVYNVSKTALLGLTRTLALELAPKDIRVNCVVPGIIKTDFSKVFHGNESLWKNFKEHHQLQRIGESEDCAGIVSFLCSPDASYVNGENIAVAGYSTRL
B9: RBKS K54A (Homo sapiens, UniProt Q9H477); sequence looked up; chain MAASGEPQRQWQEEVAAVVVVGSCMTDLVSLTSRLPKTGETIHGHKFFIGFGGAGANQCVQAARLGAMTSMVCKVGKDSFGNDYIENLKQNDISTEFTYQTKDAATGTASIIVNNEGQNIIVIVAGANLLLNTEDLRAAANVISRAKVMVCQLEITPATSLEALTMARRSGVKTLFNPAPAIADLDPQFYTLSDVFCCNESEAEILTGLTVGSAADAGEAALVLLKRGCQVVIITLGAEGCVVLSQTEPEPKHIPTEKVKAVDTTGAGDSFVGALAFYLAYYPNLSLEDMLNRSNFIAAVSVQAAGTQSSYPYKKDLPLTLF
B10: ldh 1-316 (Geobacillus stearothermophilus, UniProt P00344); chain MKNNGGARVVVIGAGFVGASYVFALMNQGIADEIVLIDANESKAIGDAMDFNHGKVFAPKPVDIWHGDYDDCRDADLVVICAGANQKPGETRLDLVDKNIAIFRSIVESVMASGFQGLFLVATNPVDILTYATWKFSGLPHERVIGSGTILDTARFRFLLGEYFSVAPQNVHAYIIGEHGDTELPVWSQAYIGVMPIRKLVESKGEEAQKDLERIFVNVRDAAYQIIEKKGATYYGIAMGLARVTRAILHNENAILTVSAYLDGLYGERDVYIGVPAVINRNGIREVIEIELNDDEKNRFHHSAATLKSVLARAFT
B11: ADAR1 127-end 127-1226 D1113H (human, UniProt P55265); sequence looked up; chain SSHFQELSIYQDQEQRILKFLEELGEGKATTAHDLSGKLGTPKKEINRVLYSLAKKGKLQKEAGTPPLWKIAVSTQAWNQHSGVVRPDGHSQGAPNSDPSLEPEDRNSTSVSEDLLEPFIAVSAQAWNQHSGVVRPDSHSQGSPNSDPGLEPEDSNSTSALEDPLEFLDMAEIKEKICDYLFNVSDSSALNLAKNIGLTKARDINAVLIDMERQGDVYRQGTTPPIWHLTDKKRERMQIKRNTNSVPETAPAAIPETKRNAEFLTCNIPTSNASNNMVTTEKVENGQEPVIKLENRQEARPEPARLKPPVHYNGPSKAGYVDFENGQWATDDIPDDLNSIRAAPGEFRAIMEMPSFYSHGLPRCSPYKKLTECQLKNPISGLLEYAQFASQTCEFNMIEQSGPPHEPRFKFQVVINGREFPPAEAGSKKVAKQDAAMKAMTILLEEAKAKDSGKSEESSHYSTEKESEKTAESQTPTPSATSFFSGKSPVTTLLECMHKLGNSCEFRLLSKEGPAHEPKFQYCVAVGAQTFPSVSAPSKKVAKQMAAEEAMKALHGEATNSMASDNQPEGMISESLDNLESMMPNKVRKIGELVRYLNTNPVGGLLEYARSHGFAAEFKLVDQSGPPHEPKFVYQAKVGGRWFPAVCAHSKKQGKQEAADAALRVLIGENEKAERMGFTEVTPVTGASLRRTMLLLSRSPEAQPKTLPLTGSTFHDQIAMLSHRCFNTLTNSFQPSLLGRKILAAIIMKKDSEDMGVVVSLGTGNRCVKGDSLSLKGETVNDCHAEIISRRGFIRFLYSELMKYNSQTAKDSIFEPAKGGEKLQIKKTVSFHLYISTAPCGDGALFDKSCSDRAMESTESRHYPVFENPKQGKLRTKVENGEGTIPVESSDIVPTWDGIRLGERLRTMSCSDKILRWNVLGLQGALLTHFLQPIYLKSVTLGYLFSQGHLTRAICCRVTRDGSAFEDGLRHPFIVNHPKVGRVSIYHSKRQSGKTKETSVNWCLADGYDLEILDGTRGTVDGPRNELSRVSKKNIFLLFKKLCSFRYRRDLLRLSYGEAKKAARDYETAKNYFKKGLKDMGYGNWISKPQEEKNFYLCPV
B12: trfB R48A (Escherichia coli, UniProt P03052); sequence looked up; chain MKKRLTESQFQEAIQGLEVGQQTIEIARGVLVDGKPQATFATSLGLTAGAVSQAVHRVWAAFEDKNLPEGYARVTAVLPEHQAYIVRKWEADAKKKQETKR
B13: spo0J A232G (Bacillus subtilis, UniProt P26497); chain MAKGLGKGINALFNQVDLSEETVEEIKIADLRPNPYQPRKHFDDEALAELKESVLQHGILQPLIVRKSLKGYDIVAGERRFRAAKLAGLDTVPAIVRELSEALMREIALLENLQREDLSPLEEAQAYDSLLKHLDLTQEQLAKRLGKSRPHIANHLRLLTLPENIQQLIAEGTLSMGHGRTLLGLKNKNKLEPLVQKVIAEQLNVRQLEQLIQQLNQNVPRETKKKEPVKDGVLKERESYLQNYFGTTVNIKRQKKKGKIEIEFFSNEDLDRILELLSERES
Chain of UniProt P22248 (whole entry, looked up): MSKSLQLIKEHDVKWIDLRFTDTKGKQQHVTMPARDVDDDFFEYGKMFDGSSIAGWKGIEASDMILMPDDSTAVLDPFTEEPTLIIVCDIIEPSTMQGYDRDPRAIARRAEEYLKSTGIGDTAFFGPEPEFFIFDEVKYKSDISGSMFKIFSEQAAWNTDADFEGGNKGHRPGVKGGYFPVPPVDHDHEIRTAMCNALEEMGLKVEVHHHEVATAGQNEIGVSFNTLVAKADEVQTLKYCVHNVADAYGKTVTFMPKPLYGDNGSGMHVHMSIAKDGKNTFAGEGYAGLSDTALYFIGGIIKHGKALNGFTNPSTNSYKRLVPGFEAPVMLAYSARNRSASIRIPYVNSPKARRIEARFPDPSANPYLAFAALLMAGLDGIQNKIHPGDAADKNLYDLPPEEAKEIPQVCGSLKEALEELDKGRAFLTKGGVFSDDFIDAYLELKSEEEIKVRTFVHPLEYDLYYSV
Chain of UniProt A0A348FUE1 (whole entry, looked up): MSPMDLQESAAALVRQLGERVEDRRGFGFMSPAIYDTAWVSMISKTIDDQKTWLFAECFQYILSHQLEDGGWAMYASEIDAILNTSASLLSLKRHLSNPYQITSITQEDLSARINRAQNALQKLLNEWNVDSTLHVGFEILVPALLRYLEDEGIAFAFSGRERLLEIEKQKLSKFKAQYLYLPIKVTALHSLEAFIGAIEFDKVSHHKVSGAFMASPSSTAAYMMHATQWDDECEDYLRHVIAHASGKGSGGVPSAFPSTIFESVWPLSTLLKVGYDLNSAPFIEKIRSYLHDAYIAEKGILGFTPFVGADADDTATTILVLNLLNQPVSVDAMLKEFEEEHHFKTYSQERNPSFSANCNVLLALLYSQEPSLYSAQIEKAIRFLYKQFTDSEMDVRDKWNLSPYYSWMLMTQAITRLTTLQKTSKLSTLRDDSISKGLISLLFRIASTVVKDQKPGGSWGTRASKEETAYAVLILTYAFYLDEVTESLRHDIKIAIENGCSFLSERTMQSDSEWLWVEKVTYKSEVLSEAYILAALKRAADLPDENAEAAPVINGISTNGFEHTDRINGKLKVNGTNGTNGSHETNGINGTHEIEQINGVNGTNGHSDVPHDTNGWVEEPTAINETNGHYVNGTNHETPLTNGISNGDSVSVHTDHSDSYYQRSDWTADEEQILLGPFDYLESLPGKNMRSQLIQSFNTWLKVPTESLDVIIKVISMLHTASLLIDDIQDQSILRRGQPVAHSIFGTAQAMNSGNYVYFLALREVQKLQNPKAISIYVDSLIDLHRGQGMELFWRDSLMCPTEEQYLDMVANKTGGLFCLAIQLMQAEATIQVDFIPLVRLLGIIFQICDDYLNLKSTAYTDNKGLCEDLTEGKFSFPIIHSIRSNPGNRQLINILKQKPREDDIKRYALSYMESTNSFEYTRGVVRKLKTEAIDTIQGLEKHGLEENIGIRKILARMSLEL

| Molecule | target or system | assay | test system | conditions | how to read | quantity | value |
| --- | --- | --- | --- | --- | --- | --- | --- |
| B1 (NECTIN2 32-350) | itself | SEC-MALS | – | – | – | subunits per oligomer | 2 |
| B2 (GDF15 mature) | itself | AUC | – | – | – | subunits per oligomer | 2 |
| protein (Penicillium verruculosum, UniProt A0A348FUE1) | itself | SEC-MALS | – | – | – | subunits per oligomer | 2 |
| B3 (cfbA 1-143) | itself | SEC | – | – | – | subunits per oligomer | 2 |
| GGUAAUUAC (ssRNA) | U2AF2 | sequencing of bound RNA | RNA | motif only | – | pKd | 6.26 |
| B4 (tebp-1) | itself | SEC-MALS | – | – | – | subunits per oligomer | 2 |
| Sncg (Mus musculus, UniProt Q9Z0F7) | itself | SDS-PAGE, western blot | – | not purified, SDS-resistant oligomers | – | subunits per oligomer | 2 |
| ACUCUUAUC (ssRNA) | U2AF2 | sequencing of bound RNA | RNA | motif only | – | pKd | 6.08 |
| B5 (human CHID1) | PP6C (human) | co-immunoprecipitation, IP-MS | CYB5R4 knockout cells | concentration not given | relative to: CYB5R4 knockout over parental | log2 fold change | -1.84 |
| B6 (priC) | itself | AUC | – | – | – | subunits per oligomer | 4 and 2 |
| glnA (Azotobacter vinelandii, UniProt P22248) | itself | cryo-EM | – | – | – | subunits per oligomer | 12 |
| B7 (treS) | itself | SAXS | – | – | – | subunits per oligomer | 2 |
| B8 (human DHRS2) | CYB5R4 knockout human cells | PP4 interaction, 3xFLAG-PP4C IP-MS | – | concentration not given | relative to: CYB5R4 KO over parental | log2 fold change | -4.71 |
| B9 (RBKS K54A) | itself | mass photometry | – | – | – | subunits per oligomer | 2 |
| B10 (ldh 1-316) | itself | dynamic light scattering | – | – | – | subunits per oligomer | 2 |
| B11 (ADAR1 127-end 127-1226 D1113H) | itself | SEC | – | – | – | subunits per oligomer | 2 |
| CER6 (Zea mays, UniProt B4G0N2) | itself | cryo-EM | – | – | – | subunits per oligomer | 2 |
| RBCK1 (Homo sapiens, UniProt Q9BYM8-1) | itself | SEC-MALS | – | – | – | subunits per oligomer | 2 |
| B12 (trfB R48A) | itself | SEC | – | – | – | subunits per oligomer | 2 |
| EWEALEKKLAALESKCQALEKKLQALEKKLEALEHG (designed peptide; D-Leu12/N-acetyl/C-amide) | itself | crystal structure | peptide | – | – | subunits per oligomer | 3 |
| B13 (spo0J A232G) | itself | SEC-MALS | – | – | – | subunits per oligomer | 2 |
